Experimental data collected from several papers.
Parts stem from different laboratories: compare values within a part only.

Series 1
Target: Histone acetyltransferase KAT6A, winged helix 1, GST fusion (KAT6A, Homo sapiens, UniProt Q92794, residues 1-85)
Technique: protein binding microarray
Molecule type: double-stranded DNA, one strand shown
Medium: in vitro
Tested at: not given
Setting: 8-mer, flanks averaged, mean of 2 arrays, mostly near background
Baseline: not given
Reading: higher = stronger binding
Target sequence (chain): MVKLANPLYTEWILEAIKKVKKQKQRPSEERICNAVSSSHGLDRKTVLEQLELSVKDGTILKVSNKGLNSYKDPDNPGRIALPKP
| Sequence | E-score |
| --- | --- |
| CGACTAGA | -0.147 |
| GAAAATAC | 0.0119 |
| GCTTCAAC | 0.0473 |
| ACACAAAT | -0.222 |
| CCCCGAAG | 0.0473 |
| GCGCAATA | 0.272 |
| GGGCAATA | 0.0672 |
| AGGCCGGG | 0.242 |
| GATTACCA | 0.0841 |

Series 2
Target: Phosphate system positive regulatory protein PHO4, full length, GST-tagged (PHO4, Saccharomyces cerevisiae, UniProt P07270, residues 1-312)
Technique: competition protein-binding microarray
Molecule type: double-stranded DNA, one strand shown
Medium: in vitro
Tested at: 2 µM
Setting: whole 60-bp probe, lowest competitor level
Together with: Cbf1 competitor, 0.05 µM
Reading: higher = stronger binding
Constant ends, left off below: … GTCTTGATTCGCTTGACGCTGCTG
Residues (chain): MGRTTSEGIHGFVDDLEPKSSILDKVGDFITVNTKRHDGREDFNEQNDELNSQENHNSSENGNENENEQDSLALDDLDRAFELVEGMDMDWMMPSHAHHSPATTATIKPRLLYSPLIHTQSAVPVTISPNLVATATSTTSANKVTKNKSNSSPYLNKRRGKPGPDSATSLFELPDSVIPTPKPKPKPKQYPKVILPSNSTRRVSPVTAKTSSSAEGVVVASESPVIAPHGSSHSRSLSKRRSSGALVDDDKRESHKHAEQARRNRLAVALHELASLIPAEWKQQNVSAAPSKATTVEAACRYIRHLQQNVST
| Sequence | fluorescence intensity [a.u.] |
| --- | --- |
| CAGACTACTAACCATCACGTGATGGTTCTTTTCACT | 13300 |
| GGCGTCGCTAGCTGGCACGGCACTGATTGCGGCGGG | 4160 |
| AAAATCCATTTTTAAAACGTGTGAATGTTTTCCCTG | 11100 |
| GTCTTGTCTCATTGTCACACTACTTTCCCCACTTCA | 5670 |
| CTTCTGTAAATTTGCGGTGTGGGTGGACGCGCCCCG | 4590 |
| CCAATTGATGGTCTACACGTTGTTTCAAGTGCATAC | 11300 |
| TTGACAGTCCCTGGACATGTGGCCAGCTTTACCACA | 11100 |
| CAGCGAGTTCTTTAGCACGCTTCTGTCTTTCAGCAT | 8570 |
| TCCTGATATTCTCCATTGTCATCCGTTTCGTCTTCC | 3360 |
| AGCGGCATAAGTCGGCACGTCCCCTGAAAGTAGGCT | 7680 |

Series 3
Target: TAR DNA-binding protein 43, full length, His tag (TARDBP, Homo sapiens, UniProt Q13148, residues 1-414)
Technique: RNA Bind-n-Seq
Molecule type: RNA
Medium: in vitro
Tested at: 20 nM
Setting: 6-mer, flanks averaged, single round
Together with: 150 mM LiCl
Baseline: input library
Reading: higher = stronger binding
| Sequence | 6-mer enrichment (R) |
| --- | --- |
| GUACGU | 1.02 |
| CUCGAU | 0.801 |
| AGUUCC | 0.883 |
| GGGAAC | 0.992 |
| GUUACC | 0.942 |
| GAAGAU | 0.891 |

Further values, each from its own experiment
| Substance | target | assay | system | setting | scale | quantity | value |
| --- | --- | --- | --- | --- | --- | --- | --- |
| PhoQ, residues 284 288 289 292 302 303 NLCILV | PhoP, residues 12 14 15 18 19 GHCSL (Escherichia coli, UniProt P23836) | Sort-seq, item: YFP reporter | E. coli | PhoQ-PhoP variant library, together with: 10 µM Mg2+ | baseline: high Mg2+ state, higher = stronger signaling | fold induction | 20.7 |

For quick reference, copied from above (series 2):
| Sequence | fluorescence intensity [a.u.] |
| --- | --- |
| GGCGTCGCTAGCTGGCACGGCACTGATTGCGGCGGG | 4160 |
